Experimental data from different studies.
A part holds a random share of what one study measured. Changes are numbered by the printed parent chain.

Sample 1 — technique: RNA Bind-n-Seq; form: RNA; medium: in vitro; tested at: 365 nM; relative to: no-protein control; direction: higher = stronger binding
Target: RNA binding protein fox-1 homolog 2, RRM domain, GST-SBP tag (RBFOX2, Homo sapiens, UniProt O43251-10, residues 100-194)
Setting: natural RNA segment, single round, ends assumed
All sequences stand within: GGGAGUUCUACAGUCCGACGAUC … UGGAAUUCUCGGGUGCCAA
Target sequence (chain): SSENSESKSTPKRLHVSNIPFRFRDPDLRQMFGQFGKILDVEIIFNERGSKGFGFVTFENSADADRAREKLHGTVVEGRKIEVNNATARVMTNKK
`CUCAGAGAACCCGUCCAGGGAGAUUUGAAGCCAUGGGUUAUCUUCUAGAGUUGAUACUGAUAAUAUAUUUUAAUUUUUAUUGAUGUUUAAUACCUUCUGAAACAGGAGGG`: “RBNS enrichment (R)” 0.374.
For `CUAAAUUAUUAUUUAGCUUCUCCCAUCGCCCACGAUGGAAUGUAAAAUAAAUUGGUUUUGUACUGGACAGCGUGCACGAGUUUUGGGGGAUUAUGCCCGCGGCAUUACAA`, “RBNS enrichment (R)” read 0.847.
`AACGUUUUGCUUCCUUCAGUUCUACUUCUCUGUGGUUGGUUUCGGUGUCGCCCUUCAGGAACUCAGAACCCGGGUGUCAGCUCUUAACAUCUCUAAGCCUUUUAAUAAAA`: “RBNS enrichment (R)” 0.537.
For `AACAUUUUUGUUCUUAUGGGGUGAGAAUAUAGACAGUGCCCUUGGUGCGAGGGAAGCAAUUGAAAAGGAACUUGCCCUGAGCACUCCUGGUGCAGGUCUCCACCUGCACA`, “RBNS enrichment (R)” read 0.522.
Under “RBNS enrichment (R)”, `CUGACUUUUGGCUCCCUCGCCCUAAGAGGCUCUUCCUCUCUUUUGCUCAUCCACCUUCACACCACUUGUGAGCUGACCCCCAGGAACAGCUUGGCUGUUCCACCAGAGCA` is recorded as 0.607.
Under “RBNS enrichment (R)”, `UGUGAGGGAACAUGCCCUGCCUUAGAGGGCUGCCACUGAAGCUGGGCCUCAUAUGUUCCAUGAGGAGCUAGGCCUCGUGGAAUGGCUGGCUGACUAAACCCAGAAAGCCA` is recorded as 0.306.
For `UACCCCGGGAAAUCCCUGUGGCCAGUUUGAACACCCCUGCUGUAACCUUCCCUCUGUUCCAUGGUCUUUGUGAACCUGCUUAGAGGUAUAGUUUUGAUAACCACAGUUUU`, “RBNS enrichment (R)” read 0.3.
Under “RBNS enrichment (R)”, `UCAAAGUGAGGCAGUGUUAGGAAACCAUGGGCUGGGUGCAGUGCCUCUCGCCUGUAAUCGUAGCACUUUGGGAGGCCGAGGCGGGCACAUUGCUUGAGCUCAGGAGUUCA` is recorded as 1.03.

Sample 2 — target: ATF7, bZIP domain (human); technique: DHFR protein complementation; medium: yeast; relative to: wild-type JUN-FOS pair; direction: higher = stronger binding
Setting: single substitutions, most at no-binding floor
Starting sequence: JUN, bZIP domain (human); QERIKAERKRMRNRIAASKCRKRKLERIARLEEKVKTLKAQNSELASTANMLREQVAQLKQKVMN; partner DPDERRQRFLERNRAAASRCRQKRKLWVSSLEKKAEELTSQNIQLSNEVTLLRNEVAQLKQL
For `A46P`, the binding fitness was -1.49 natural log.
`T48M` gave a binding fitness of -0.904 natural log.
`S43H` gave a binding fitness of -0.899 natural log.
`E32I` gave a binding fitness of -0.961 natural log.
`V56G` has a binding fitness of -1.46 natural log.
`A46E` has a binding fitness of -0.79 natural log.

Sample 3 — technique: DHFR PCA, deep sequencing; medium: yeast; with: (+)-ABA 0.032 µM; relative to: wild-type fitted maximum; direction: higher = stronger binding
Target: ABI1, truncated, D143A, DHFR fusion (Arabidopsis thaliana)
Setting: methotrexate growth selection, single substitutions
Starting sequence: PYL1, truncated, DHFR fusion (Arabidopsis thaliana); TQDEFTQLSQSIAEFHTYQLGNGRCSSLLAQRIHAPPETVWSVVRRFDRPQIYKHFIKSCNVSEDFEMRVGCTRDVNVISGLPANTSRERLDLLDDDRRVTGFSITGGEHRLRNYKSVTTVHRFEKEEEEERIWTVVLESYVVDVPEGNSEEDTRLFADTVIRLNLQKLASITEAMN
`P36G` — result for “relative binding score”: 0.646%.
Under “relative binding score”, `S150V` is recorded as 3.44%.
Under “relative binding score”, `L112T` is recorded as 0.247%.
For `E14L`, “relative binding score” read -0.255%.
For `E152D`, “relative binding score” read 19.7%.
For `A84I`, “relative binding score” read 31.4%.
Under “relative binding score”, `S42M` is recorded as 13.6%.

Further values, each from its own experiment
The fold induction of `PhoQ, residues 284 288 289 292 302 303 ASTSDA` is reported as 2.27 (PhoP, residues 12 14 15 18 19 VHSCL (Escherichia coli, UniProt P23836); Sort-seq, refers to: YFP reporter; E. coli; PhoQ-PhoP variant library, with: 10 µM Mg2+; relative to: high Mg2+ state, higher = stronger signaling).
